Measurements gathered from unrelated publications.
Lines come from different studies, so protocols differ. Several values in a cell are separate wells, animals, samples, runs or records. Numbers after ± are the reported error.
HTR3A: 5-hydroxytryptamine receptor 3A (HTR3A, Homo sapiens, UniProt P46098)
UniProt P46098, sequence (whole entry, looked up): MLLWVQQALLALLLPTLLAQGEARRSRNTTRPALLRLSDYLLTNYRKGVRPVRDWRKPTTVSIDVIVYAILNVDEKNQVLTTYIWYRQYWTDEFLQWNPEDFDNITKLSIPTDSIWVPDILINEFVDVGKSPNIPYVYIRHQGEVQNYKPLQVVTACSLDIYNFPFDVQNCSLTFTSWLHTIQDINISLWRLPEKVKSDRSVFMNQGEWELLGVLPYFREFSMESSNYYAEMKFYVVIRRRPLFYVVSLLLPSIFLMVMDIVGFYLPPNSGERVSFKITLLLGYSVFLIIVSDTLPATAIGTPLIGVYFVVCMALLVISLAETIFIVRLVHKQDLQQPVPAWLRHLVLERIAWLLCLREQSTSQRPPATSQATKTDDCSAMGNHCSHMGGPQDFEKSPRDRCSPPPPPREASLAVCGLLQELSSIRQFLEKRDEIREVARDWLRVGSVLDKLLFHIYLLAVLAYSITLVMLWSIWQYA
Trypanothione synthetase: Trypanothione synthetase (Trypanosoma brucei brucei, UniProt Q586P2)
CGAS: Cyclic GMP-AMP synthase (CGAS, Homo sapiens, UniProt Q8N884)
UniProt Q8N884, sequence (whole entry, looked up): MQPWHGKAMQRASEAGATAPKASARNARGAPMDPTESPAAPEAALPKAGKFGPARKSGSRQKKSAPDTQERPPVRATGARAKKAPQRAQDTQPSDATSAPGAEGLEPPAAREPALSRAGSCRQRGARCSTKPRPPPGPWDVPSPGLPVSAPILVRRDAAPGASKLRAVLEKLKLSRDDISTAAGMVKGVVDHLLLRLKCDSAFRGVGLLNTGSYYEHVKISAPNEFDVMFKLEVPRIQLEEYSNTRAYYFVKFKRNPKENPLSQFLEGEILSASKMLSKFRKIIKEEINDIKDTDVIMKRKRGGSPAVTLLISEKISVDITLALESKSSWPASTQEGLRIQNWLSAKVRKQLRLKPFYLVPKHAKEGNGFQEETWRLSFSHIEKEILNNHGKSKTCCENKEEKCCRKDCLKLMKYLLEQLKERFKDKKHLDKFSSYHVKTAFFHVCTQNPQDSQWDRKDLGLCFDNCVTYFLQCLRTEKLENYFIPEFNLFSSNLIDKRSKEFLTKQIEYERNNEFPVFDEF
UniProt P05067, sequence (whole entry, looked up): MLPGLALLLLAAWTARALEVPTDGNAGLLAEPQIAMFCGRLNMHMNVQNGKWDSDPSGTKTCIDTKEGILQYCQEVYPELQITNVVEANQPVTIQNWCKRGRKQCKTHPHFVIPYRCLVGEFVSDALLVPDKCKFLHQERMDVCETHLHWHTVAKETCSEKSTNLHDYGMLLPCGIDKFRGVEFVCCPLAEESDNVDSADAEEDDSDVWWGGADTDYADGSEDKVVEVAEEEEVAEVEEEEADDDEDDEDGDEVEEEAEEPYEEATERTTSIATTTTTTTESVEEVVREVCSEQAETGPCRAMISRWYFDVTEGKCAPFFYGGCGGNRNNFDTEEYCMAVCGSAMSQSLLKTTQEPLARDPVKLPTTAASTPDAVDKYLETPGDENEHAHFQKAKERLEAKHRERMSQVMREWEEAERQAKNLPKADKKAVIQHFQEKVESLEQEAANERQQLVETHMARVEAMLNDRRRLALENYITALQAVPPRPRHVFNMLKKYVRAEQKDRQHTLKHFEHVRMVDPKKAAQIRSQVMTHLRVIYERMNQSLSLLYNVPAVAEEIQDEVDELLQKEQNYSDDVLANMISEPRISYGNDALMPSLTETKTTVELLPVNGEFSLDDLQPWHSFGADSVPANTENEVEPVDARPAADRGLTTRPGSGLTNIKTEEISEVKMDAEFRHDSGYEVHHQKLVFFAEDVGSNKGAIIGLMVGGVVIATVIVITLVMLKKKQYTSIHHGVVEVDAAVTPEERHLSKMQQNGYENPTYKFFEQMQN
UniProt Q08499, sequence (whole entry, looked up): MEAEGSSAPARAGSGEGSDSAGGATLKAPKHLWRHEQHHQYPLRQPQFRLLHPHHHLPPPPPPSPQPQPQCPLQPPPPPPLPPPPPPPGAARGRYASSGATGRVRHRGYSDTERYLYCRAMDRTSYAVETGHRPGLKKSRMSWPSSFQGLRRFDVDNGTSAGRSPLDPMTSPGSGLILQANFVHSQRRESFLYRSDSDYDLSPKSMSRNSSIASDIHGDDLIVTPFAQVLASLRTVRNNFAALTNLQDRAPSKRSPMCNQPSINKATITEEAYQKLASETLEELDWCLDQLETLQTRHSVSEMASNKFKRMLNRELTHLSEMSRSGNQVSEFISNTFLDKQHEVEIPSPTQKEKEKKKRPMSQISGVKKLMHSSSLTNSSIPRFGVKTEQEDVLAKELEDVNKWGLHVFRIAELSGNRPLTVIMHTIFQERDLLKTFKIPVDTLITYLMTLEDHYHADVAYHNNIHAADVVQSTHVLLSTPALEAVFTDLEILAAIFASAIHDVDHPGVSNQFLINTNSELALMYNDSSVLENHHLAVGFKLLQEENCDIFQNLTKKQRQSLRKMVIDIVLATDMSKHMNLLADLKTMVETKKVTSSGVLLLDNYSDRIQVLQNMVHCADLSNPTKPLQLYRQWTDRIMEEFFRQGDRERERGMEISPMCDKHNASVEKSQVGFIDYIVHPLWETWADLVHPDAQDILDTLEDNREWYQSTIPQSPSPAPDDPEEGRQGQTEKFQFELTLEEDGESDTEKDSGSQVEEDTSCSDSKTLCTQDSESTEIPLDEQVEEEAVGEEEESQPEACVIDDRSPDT
UniProt Q15831, sequence (whole entry, looked up): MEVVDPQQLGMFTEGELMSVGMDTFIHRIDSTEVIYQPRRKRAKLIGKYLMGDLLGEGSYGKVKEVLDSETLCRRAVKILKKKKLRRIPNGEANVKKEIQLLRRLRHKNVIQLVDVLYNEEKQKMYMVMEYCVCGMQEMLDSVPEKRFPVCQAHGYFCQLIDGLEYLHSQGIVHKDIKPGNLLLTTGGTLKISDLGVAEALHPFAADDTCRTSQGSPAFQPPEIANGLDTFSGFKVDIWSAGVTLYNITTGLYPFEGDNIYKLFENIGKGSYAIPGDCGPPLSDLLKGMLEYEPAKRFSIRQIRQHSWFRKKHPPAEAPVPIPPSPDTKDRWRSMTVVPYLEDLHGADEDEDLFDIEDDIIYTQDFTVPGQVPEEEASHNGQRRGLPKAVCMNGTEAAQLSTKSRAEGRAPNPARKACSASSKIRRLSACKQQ
UniProt P37288, sequence (whole entry, looked up): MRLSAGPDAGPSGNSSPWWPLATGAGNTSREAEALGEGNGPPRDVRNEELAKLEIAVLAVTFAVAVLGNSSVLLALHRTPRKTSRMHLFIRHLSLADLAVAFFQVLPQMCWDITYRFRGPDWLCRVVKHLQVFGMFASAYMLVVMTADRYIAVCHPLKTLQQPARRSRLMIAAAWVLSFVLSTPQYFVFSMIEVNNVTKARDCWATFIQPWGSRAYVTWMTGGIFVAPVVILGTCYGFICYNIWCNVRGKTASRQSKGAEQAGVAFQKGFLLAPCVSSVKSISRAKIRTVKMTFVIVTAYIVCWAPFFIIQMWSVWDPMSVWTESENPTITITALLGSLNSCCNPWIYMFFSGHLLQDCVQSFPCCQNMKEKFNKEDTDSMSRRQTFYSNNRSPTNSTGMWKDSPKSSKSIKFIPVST
UniProt O60725, sequence (whole entry, looked up): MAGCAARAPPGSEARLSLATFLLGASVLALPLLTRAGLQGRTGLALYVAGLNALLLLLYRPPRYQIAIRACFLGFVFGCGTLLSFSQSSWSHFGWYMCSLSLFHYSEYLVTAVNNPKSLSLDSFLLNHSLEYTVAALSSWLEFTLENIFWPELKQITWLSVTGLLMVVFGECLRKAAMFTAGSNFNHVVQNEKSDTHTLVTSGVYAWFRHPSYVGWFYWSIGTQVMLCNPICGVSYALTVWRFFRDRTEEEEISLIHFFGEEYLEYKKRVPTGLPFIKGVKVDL
UniProt P19784, sequence (whole entry, looked up): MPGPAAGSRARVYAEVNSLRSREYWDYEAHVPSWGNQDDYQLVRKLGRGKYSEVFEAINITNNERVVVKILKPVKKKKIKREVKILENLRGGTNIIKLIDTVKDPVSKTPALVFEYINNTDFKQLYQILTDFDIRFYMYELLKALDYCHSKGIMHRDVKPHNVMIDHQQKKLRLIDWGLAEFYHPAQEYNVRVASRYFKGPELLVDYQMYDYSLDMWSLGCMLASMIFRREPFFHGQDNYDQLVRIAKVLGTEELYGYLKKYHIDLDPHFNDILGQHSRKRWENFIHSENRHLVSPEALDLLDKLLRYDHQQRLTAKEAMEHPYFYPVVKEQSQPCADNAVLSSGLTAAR
UniProt Q06187, sequence (whole entry, looked up): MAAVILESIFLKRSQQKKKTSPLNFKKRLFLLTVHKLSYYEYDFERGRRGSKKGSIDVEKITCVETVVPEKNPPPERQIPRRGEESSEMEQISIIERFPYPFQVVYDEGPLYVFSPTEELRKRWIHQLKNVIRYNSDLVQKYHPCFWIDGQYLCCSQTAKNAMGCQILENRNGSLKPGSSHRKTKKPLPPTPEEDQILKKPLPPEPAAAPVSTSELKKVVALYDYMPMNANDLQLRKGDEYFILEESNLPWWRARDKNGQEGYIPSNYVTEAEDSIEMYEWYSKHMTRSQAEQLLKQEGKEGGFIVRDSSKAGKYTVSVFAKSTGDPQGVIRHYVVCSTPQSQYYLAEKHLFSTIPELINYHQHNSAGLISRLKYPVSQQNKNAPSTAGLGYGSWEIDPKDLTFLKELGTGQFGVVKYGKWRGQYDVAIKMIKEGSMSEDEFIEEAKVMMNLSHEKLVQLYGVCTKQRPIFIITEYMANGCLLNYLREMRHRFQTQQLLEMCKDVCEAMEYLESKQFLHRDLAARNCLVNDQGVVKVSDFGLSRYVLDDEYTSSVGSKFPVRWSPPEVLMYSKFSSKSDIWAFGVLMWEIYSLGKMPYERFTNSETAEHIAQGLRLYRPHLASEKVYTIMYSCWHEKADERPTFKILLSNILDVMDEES

SMILES = C[C@@H]1CCO[C@H]2Cn3cc(C(=O)NCc4ccc(F)cc4F)c(=O)c(O)c3C(=O)N12; tested on = SLC22A3 (Homo sapiens, UniProt O75751); assay = transport; system = MDCK-II, transfected; setting = 0.5 µM, added: MPP+ 2 µM; quantity = inhibition; result = 11.6%
SMILES = CN(C(=O)n1cnc(-c2ccc[n+]([O-])c2)c1)C1CCCCC1; tested on = AVPR1A (Homo sapiens, UniProt P37288); setting = 10 µM; quantity = inhibition; result = -8%
SMILES = CCc1nn(C)c2nc(-c3ccc(C(=O)O)cc3)nc(NCc3ccc(F)cc3)c12; tested on = PDE4D (Homo sapiens, UniProt Q08499); assay = inhibitor; setting = 10 µM, mean of replicates, added: [3H]cAMP; scale = baseline: control; quantity = inhibition; result = 42%
SMILES = COc1ccc2c(c1)CN(CCCN1CCN(c3ccccc3OC)CC1)C2=O; tested on = HTR3A; assay = radioligand binding; setting = concentration not given, added: [3H]GR65630; quantity = inhibition; result = 7.9%
SMILES = OO; tested on = Histone acetyltransferase GCN5, with Ada2 and Ada3 (Saccharomyces cerevisiae S288c, UniProt Q03330); assay = enzyme activity, inhibitor; setting = 250 µM, Gcn5-Ada2-Ada3 complex, no DTT, added: [3H]acetyl-CoA; quantity = inhibition; result = 8 ± 9%
SMILES = C=CC1=C(C)C2=Cc3c(C=C)c(C)c4[n]3[Sn]([Cl])([Cl])[n]3c(c(C)c(CCC(=O)O)c3=CC3=NC(=C4)C(C)=C3CCC(=O)O)=CC1=N2; tested on = Trypanothione synthetase; assay = enzyme activity, BIOMOL Green phosphate release; setting = 25 µM; quantity = inhibition; result = 13.8 ± 11.2%
SMILES = O=C(Nc1cccc2c(=O)cc(-c3nnn[nH]3)oc12)c1ccc(OCCCCc2ccccc2)cc1; tested on = Volume-regulated anion channel subunit LRRC8C, part LRRC8A IL1 chimera (LRRC8C, Homo sapiens, UniProt Q8TDW0, Y126F); assay = ion current, inhibitor, whole-cell patch clamp; system = HCT LRRC8-/- cells; setting = 0.3 µM, -100 mV; quantity = inhibition; result = 29.1% and 29% and 24.7% and 28.2% and 9.86%
SMILES = CN1CCN(c2cc(-c3ccncc3)c(-c3ccc4ccccc4c3)nn2)CC1; tested on = LPAR2 (Homo sapiens, UniProt Q9HBW0); assay = antagonist, FLIPR; setting = 10 µM; quantity = inhibition; result = 39.9%
SMILES = Cc1ccnc(OC[C@H]2CN(CC(=O)N3CCc4ccccc43)CCO2)c1; tested on = HTR3A; assay = radioligand binding; setting = concentration not given, added: [3H]GR65630; quantity = inhibition; result = -10.9%
SMILES = OCCCN1CC[C@@H]2C[C@H]1c1cc(-c3ccc(C(F)(F)F)cc3)ccc12; tested on = ADRB3 (Homo sapiens, UniProt P13945); assay = radioligand binding, PDSP competition binding; setting = 10 µM; quantity = inhibition; result = < 50%
SMILES = COc1cc(C(=O)NS(=O)(=O)c2ccccc2C)ccc1Cc1cn(C)c2ccc(NC(=O)OC3CCCC3)cc12; tested on = Volume-regulated anion channel subunit LRRC8C, part LRRC8A IL1 chimera (LRRC8C, Homo sapiens, UniProt Q8TDW0, C43G/S11C); assay = ion current, inhibitor, whole-cell patch clamp; system = HCT LRRC8-/- cells; setting = 30 µM, +100 mV; quantity = inhibition; result = 72.8% and 88.7% and 80.5% and 86% and 90%
SMILES = CNc1ccc(-c2nc3ccc(O)cc3s2)cc1; tested on = Amyloid-beta precursor protein, amyloid-beta (APP, Homo sapiens, UniProt P05067); assay = binding, competition binding; system = amyloid-beta aggregates; setting = 2000 nM, added: tritiated amyloid ligand; quantity = inhibition; result = 88.4% and 82%
SMILES = C[C@H]1[C@H](OC(=O)CCC(=O)O)O[C@@H]2O[C@@]3(C)CC[C@H]4[C@H](C)CC[C@@H]1[C@@]24OO3; tested on = Non-structural polyprotein pORF1, RNA-dependent RNA polymerase (Hepatitis E virus genotype 1, UniProt P33424); assay = polymerase activity; setting = 4.8 µM; quantity = inhibition; result = 38.4%
SMILES = CN(Cc1cccnc1)C(=O)c1ccc(C2CCCCC2)cc1; assay = liver microsome stability; system = mouse liver microsomes; setting = 1 µM; quantity = hepatic clearance; result = 87 mL/min/kg
SMILES = COc1ccc2c(c1)C(=O)N(CCN1CCN(c3ccccc3OC)CC1)C2; tested on = HTR3A; assay = radioligand binding; setting = concentration not given, added: [3H]GR65630; quantity = inhibition; result = -19.5%
SMILES = COc1ccc(F)cc1C(=O)NCc1ccc(-c2nn([C@@H](C)C(F)(F)F)c(N)c2C(N)=O)cc1; tested on = BTK (Homo sapiens, UniProt Q06187); assay = probe binding, competitive chemoproteomics; system = human PBMCs; setting = 1 µM; quantity = inhibition; result = > 90%
SMILES = COc1ccc(C2=N[C@@H](c3ccc(Cl)cc3)[C@@H](c3ccc(Cl)cc3)N2C(=O)N2CCNC(=O)C2)c(OC(C)C)c1; tested on = Trypanothione synthetase; assay = enzyme activity, inhibitor, phosphate release; setting = 25 µM; quantity = inhibition; result = 39.8 ± 5.2%
SMILES = C#Cc1cc(-c2cc(Nc3nc(N[C@@H](C)c4ccc(F)cn4)ncc3Cl)n[nH]2)ccc1C=O; tested on = NTRK1 (Homo sapiens, UniProt P04629); assay = enzyme activity, inhibitor; setting = 0.2 µM; quantity = inhibition; result = 100%
SMILES = CC[C@@H]1[C@H](F)C(=O)N[C@@H]1COc1nccc2cc(C(N)=O)c(OC)cc12; tested on = STK11 (Homo sapiens, UniProt Q15831); assay = ATP-site probe binding, ActivX profiling; system = THP-1 cell lysate; setting = 0.2 mM, Lys2 site; quantity = inhibition; result = 34.8%
SMILES = Ic1cccc2cnccc12; tested on = ATP-binding cassette sub-family C member 8 (ABCC8, Cricetus cricetus, UniProt Q09427); assay = binding, radioligand binding; setting = 10 µM; quantity = inhibition; result = 0%
SMILES = COc1ccc2c(c1)C(=O)N(CCCN1CCN(c3ccccc3OC)CC1)C2; tested on = HTR3A; assay = radioligand binding; setting = concentration not given, added: [3H]GR65630; quantity = inhibition; result = -3.4%
SMILES = N[C@@H](CCC(=O)O)C(=O)O; tested on = NMDA receptor agonist site (rat); assay = radioligand binding; system = rat brain; setting = 1×10 µM; quantity = inhibition; result = 100%
SMILES = CN1CC(Oc2cnc(C#N)cc2-c2ccn3nc(NC(=O)C4CC4)cc3c2)C1; tested on = CSNK2A2 (Homo sapiens, UniProt P19784); assay = inhibitor, KinaseProfiler panel; setting = 1 µM; quantity = inhibition; result = -1%
SMILES = Cc1nn(-c2nc3c(F)cc(F)cc3s2)c(O)c1C(c1ccccc1C(F)(F)F)c1c(C)nn(-c2nc3c(F)cc(F)cc3s2)c1O; tested on = CGAS; assay = enzyme activity, inhibitor, pyrophosphatase-coupled; setting = 25 µM, 1.5 h, added: HT-DNA; quantity = inhibition; result = 64.5%
SMILES = COc1cc2c(cc1OC)C(=O)N(CCCCN1CCN(c3ccccc3OC)CC1)C2; tested on = HTR3A; assay = radioligand binding; setting = concentration not given, added: [3H]GR65630; quantity = inhibition; result = 10.4%
SMILES = Cc1nn(-c2nc3ccccc3[nH]2)c(O)c1C(c1ccccc1C(=O)O)c1c(C)nn(-c2nc3ccccc3[nH]2)c1O; tested on = CGAS; assay = enzyme activity, inhibitor, pyrophosphatase-coupled; setting = 100 µM, 1.5 h, added: HT-DNA; quantity = inhibition; result = 81.2%
SMILES = COc1cc(-c2cc(C(C)=O)n3ccccc23)cc(OC)c1Cn1ccnc1; tested on = TRIM24 (Homo sapiens, UniProt O15164); setting = 1 µM; quantity = inhibition; result = -3.78%
SMILES = Cc1ccnc(C)c1OC[C@H]1CN(CCN2CCc3ccccc32)CCO1; tested on = HTR3A; assay = radioligand binding; setting = concentration not given, added: [3H]GR65630; quantity = inhibition; result = -12.9%
SMILES = CN1CCN(C(=O)c2ccc([C@H]3[C@@H](F)[C@@H](F)C[C@@H](F)[C@H]3F)cc2)CC1; assay = liver microsome stability; system = dog liver microsomes; setting = 1 µM; quantity = hepatic clearance; result = 18 mL/min/kg
SMILES = Cc1nn(-c2nc3c(F)cc(F)cc3s2)c(O)c1C(c1ccc(C(F)(F)F)cc1)c1c(C)nn(-c2nc3c(F)cc(F)cc3s2)c1O; tested on = Cyclic GMP-AMP synthase, catalytic domain; with DNA (CGAS, Homo sapiens, UniProt Q8N884); assay = cGAS phase separation, inhibitor; setting = 0.781 µM; quantity = inhibition; result = 12.3%
SMILES = O=C(CN1CCO[C@H](COc2ccccc2)C1)N1CCc2ccccc21; tested on = HTR3A; assay = radioligand binding; setting = concentration not given, added: [3H]GR65630; quantity = inhibition; result = 9.9%
SMILES = CCN1CCN(Cc2ccc(NC(=O)c3ccc(C)c(Oc4ccnc5[nH]ccc45)c3)cc2C(F)(F)F)CC1; tested on = PIP4K2C (Homo sapiens, UniProt Q8TBX8); system = A-375; setting = concentration not given; quantity = inhibition; result = -13.3%
SMILES = Cc1cc2c(cc1N1C(=O)c3cccc4c(CCCO)ccc(c34)C1=O)n(C)c(=O)n2C (racemic); tested on = ATAD2 (Homo sapiens, UniProt Q6PL18); assay = binding, BROMOscan binding; setting = 100 nM; quantity = inhibition; result = 93%
SMILES = CCCCCCCCN(CCC(=O)Nc1ccccc1)C(=O)[C@@H]1CCCN1; tested on = Protein-S-isoprenylcysteine O-methyltransferase (Homo sapiens, UniProt O60725); assay = enzyme activity; system = Sf9 membranes; setting = 50 µM, added: biotin-farnesyl-L-cysteine; quantity = inhibition; result = 64%

Some of these lines once more:
SMILES = CCc1nn(C)c2nc(-c3ccc(C(=O)O)cc3)nc(NCc3ccc(F)cc3)c12; tested on = PDE4D (Homo sapiens, UniProt Q08499); assay = inhibitor; setting = 10 µM, mean of replicates, added: [3H]cAMP; scale = baseline: control; quantity = inhibition; result = 42%
SMILES = COc1ccc2c(c1)CN(CCCN1CCN(c3ccccc3OC)CC1)C2=O; tested on = HTR3A; assay = radioligand binding; setting = concentration not given, added: [3H]GR65630; quantity = inhibition; result = 7.9%
SMILES = OO; tested on = Histone acetyltransferase GCN5, with Ada2 and Ada3 (Saccharomyces cerevisiae S288c, UniProt Q03330); assay = enzyme activity, inhibitor; setting = 250 µM, Gcn5-Ada2-Ada3 complex, no DTT, added: [3H]acetyl-CoA; quantity = inhibition; result = 8 ± 9%
